Assay results of several laboratories.
Lines come from different studies, so protocols differ. “And” joins repeats or separate records; there may be more than shown. Numbers after ± are the reported error.

SMILES | target or system | assay | system | setting | scale | quantity | value
O=C([O-])CN1CCN(CC(=O)[O-])CCN(CC(=O)NC[C@H]2CC[C@H](C(=O)N[C@H](Cc3cnc4ccccc4c3)C(=O)NCCCC[C@H](NC(=O)N[C@@H](CCC(=O)O)C(=O)O)C(=O)O)CC2)CCN(CC(=O)[O-])CC1.[64Cu+2] |  | ex vivo gamma counting | 22Rv1 tumour-bearing mice, intestine | intravenous, 0.74 MBq, 1 h post-injection |  | tissue uptake | 14 %ID/g
[11CH3]N1CCC(NC(=O)c2cc(-c3c(O)cc(O)cc3Oc3ccc([N+](=O)[O-])cc3)on2)CC1 |  |  | Wistar rat, female, healthy, urine | intravenous, 30 min |  | tissue uptake | 4.8 ± 1.2 %ID
Cc1ncsc1-c1ccc(C(C)NC(=O)C2CC(O)CN2C(=O)C(NC(=O)CCCCCCCCCCN2CCCC(Nc3ncc(Cl)c(Nc4ccccc4S(=O)(=O)C(C)C)n3)C2)C(C)(C)C)cc1 (stereo not drawn) | 22Rv1 | RNA-seq, refers to: ZNF839 mRNA |  | concentration not given | relative to: DMSO | log2 fold change | -1.87
COc1cccc(OC)c1-c1cc(C(=O)NC2(C(=O)O)C3CC4CC(C3)CC2C4)nn1-c1ccc(C(=O)N(C)CCCN(C)CCCN(C)C(=O)[C@H](CCCCNC(=O)[C@H](CC(C)C)NC(=O)C2OC2C(=O)O)NC(=O)CN2CCN(CC(=O)[O-])CCN(CC(=O)[O-])CCN(CC(=O)[O-])CC2)cc1C(C)C.[177Lu+3] (mixture of isomers) |  |  | mouse, HT-29 xenograft, muscle | 24 h post injection |  | tissue uptake | 0.41 %ID/g
COc1ccc(Nc2nc(Nc3ccc(OCCOCCOCC[18F])cc3)ncc2Br)cc1 |  |  | ICR mice, S180 tumour-bearing, heart | intravenous, 370 kBq, 15 min |  | tissue uptake | 1.61 ± 0.24 %ID/g
O=C([O-])CN1CCN(CC(=O)[O-])CCN(Cc2cccc(C(=O)[O-])n2)CC1.[177Lu+3] |  |  | BALB/c mouse, large intestine | intravenous, 1 h |  | tissue uptake | 0.17 ± 0.06 %ID/g
Cc1cc(C)n(CCN(CCN)CCCCCCNC(=O)[C@@H](N)Cc2c[nH]cn2)n1.[99Tc+].[C-]#[O+].[C-]#[O+].[C-]#[O+] |  |  | BALB/c nude mice, MCF7 xenograft, heart | intravenous, 4 h |  | tissue uptake | 0.34 ± 0.06 %IA/g
COc1ccc2c(c1)C(C)(C)C(/C=C/C1=C(Oc3ccc(C(=O)NCCCCOc4cc(CN(Cc5ccccn5)Cc5ccccn5)cc(CN(Cc5ccccn5)Cc5ccccn5)c4)cc3)C(=C/C=C3/N(CCCCS(=O)(=O)[O-])c4ccc(OC)cc4C3(C)C)CCC1)=[N+]2CCCCS(=O)(=O)[O-].O=[N+]([O-])[O-].O=[N+]([O-])[O-].[99Tc+].[C-]#[O+].[C-]#[O+].[C-]#[O+].[Zn+2] |  |  | BALB/c mouse, Staphylococcus aureus myositis, spleen | 12 h |  | tissue uptake | 0.6 %ID/g and 11.8 %ID/g and 19.5 %ID/g and 5.69 %ID/g
O=C(NCC1OC2CCC=CCCC2O1)c1ccc([18F])nc1 (stereo not drawn) |  |  | healthy female BALB/c nude mice, bone | intravenous, 7.4 MBq per mouse, 120 min |  | tissue uptake | 2.4 ± 1.1 %ID/g
CC(C)C[C@H](NC(=O)[C@@H](CCCCNC(=O)[C@@H](Cc1ccccc1)NC(=O)CCCCCCCNC(=O)CN1CCN(CC(=O)O)CCN(CC(=O)O)CCN(CC(=O)O)CC1)NC(=O)[C@H](Cc1ccc(O)cc1)NC(=O)[C@H](CO)NC(=O)[C@H](Cc1c[nH]c2ccccc12)NC(=O)[C@H](Cc1c[nH]cn1)NC(=O)[C@@H]1CCC(=O)N1)C(=O)N[C@@H](CCCNC(=N)N)C(=O)N1CCC[C@H]1C(=O)NCC(N)=O [indium-111 labelled] |  | biodistribution | male athymic nude mice, DU-145 prostate cancer xenograft, heart | intravenous, 0.037 MBq, 2 h post-injection |  | tissue uptake | 0.11 ± 0.06 %ID/g
CCCC[C@H](NC(=O)CNC(=O)CNC(=O)[C@H](CCCCNC(=O)[C@H](CC(=O)O)NC(=O)C(C)c1ccc(CC(C)C)cc1)NC(=O)CN1CCN(CC(=O)O)CCN(CC(=O)O)CCN(CC(=O)O)CC1)C(=O)N[C@H]1CC(=O)NCCCC[C@@H](C(N)=O)NC(=O)[C@H](Cc2c[nH]c3ccccc23)NC(=O)[C@H](CCCNC(=N)N)NC(=O)[C@@H](Cc2ccccc2)NC(=O)[C@H](Cc2c[nH]cn2)NC1=O (stereo partly drawn) [lutetium-177 labelled] |  |  | C57 mice, tumour-bearing, skin | intravenous, 0.037 MBq, 24 h |  | tissue uptake | 0.56 ± 0.28 %ID/g
[123I]c1ccc2nc(-c3ccc(-n4ccnn4)nc3)cn2c1 |  |  | Wistar rat, heart | intravenous, 14 h |  | tissue uptake | not detected
